# Published values of several laboratories.
# Each line is one published result; not all experiments were run side by side. pEC50, pIC50: −log10 of the molar value.
# Cell line: THP-1
SMILES,assay,conditions,quantity,result
CCN(C(=O)c1cc(F)ccc1Oc1nncnc1N1CCC2(C1)CN([C@H](CCCN(C)CCOC)C(C)C)C2)C(C)C,cell growth or viability,7 days,GI50,> 10000 nM
O=c1c(-c2cnn(-c3ccccc3)c2)c(C(F)(F)F)oc2c(O)c(O)ccc12,"apoptosis, annexin V flow cytometry",,pEC50,~4.85
CNS(=O)(=O)Nc1nccc(Cc2c(C)c3ccc(Oc4ncccc4F)cc3oc2=O)c1F,cell viability,7 days,pIC50,8.37
CCOc1cncc(-c2ccc(NC(=O)C3(c4ccnc(NS(=O)(=O)C5CC5)n4)CCOCC3)nc2)n1,"cell proliferation, CellTiter-Glo",72 h,pIC50,7.36
O=S(=O)(c1ccc2c(c1)OCO2)n1cc(CCCCN2CCC(=C(c3ccc(F)c(F)c3)c3ccc(F)c(F)c3)CC2)nn1,Seahorse,concentration not given,extracellular acidification rate,increased
CN1CC[C@@H](COc2cnc(C#N)cc2-c2ccn3nc(NC(=O)C4CC4)cc3c2)C1,"nuclear translocation, item: CRTC3",median of experiments,pEC50,5.76
CC(C)c1ccc(N(C)c2ccc3c(c2)OCC[C@H]3CNc2cnccc2C(=O)O)cc1,"cell growth or viability, ATP luminescence",7 days,pIC50,8.21
C/C(=N\NC(=O)c1cccc(S(=O)(=O)N2CCOCC2)c1)c1cc(Cl)ccc1O,"differentiation, flow cytometry, item: CD11b",96 h,pEC50,< 5.70

# Repeated from above:
SMILES,assay,conditions,quantity,result
CCN(C(=O)c1cc(F)ccc1Oc1nncnc1N1CCC2(C1)CN([C@H](CCCN(C)CCOC)C(C)C)C2)C(C)C,cell growth or viability,7 days,GI50,> 10000 nM
